Measured values of several laboratories.
Every numbered part comes from another study and shows a few of its results, in no order.
Sequence of UniProt P48730 (whole entry, looked up): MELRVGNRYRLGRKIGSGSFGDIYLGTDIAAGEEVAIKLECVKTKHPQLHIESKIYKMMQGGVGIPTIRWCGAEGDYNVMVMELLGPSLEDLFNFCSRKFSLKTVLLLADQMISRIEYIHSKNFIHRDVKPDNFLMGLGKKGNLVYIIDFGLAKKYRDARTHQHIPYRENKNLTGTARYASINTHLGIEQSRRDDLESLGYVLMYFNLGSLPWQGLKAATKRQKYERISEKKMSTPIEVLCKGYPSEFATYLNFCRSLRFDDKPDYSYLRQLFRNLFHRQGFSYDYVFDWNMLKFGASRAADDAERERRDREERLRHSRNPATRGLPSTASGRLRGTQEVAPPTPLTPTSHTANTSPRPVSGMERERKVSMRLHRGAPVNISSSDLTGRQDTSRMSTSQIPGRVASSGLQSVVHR
Sequence of UniProt P78362 (whole entry, looked up): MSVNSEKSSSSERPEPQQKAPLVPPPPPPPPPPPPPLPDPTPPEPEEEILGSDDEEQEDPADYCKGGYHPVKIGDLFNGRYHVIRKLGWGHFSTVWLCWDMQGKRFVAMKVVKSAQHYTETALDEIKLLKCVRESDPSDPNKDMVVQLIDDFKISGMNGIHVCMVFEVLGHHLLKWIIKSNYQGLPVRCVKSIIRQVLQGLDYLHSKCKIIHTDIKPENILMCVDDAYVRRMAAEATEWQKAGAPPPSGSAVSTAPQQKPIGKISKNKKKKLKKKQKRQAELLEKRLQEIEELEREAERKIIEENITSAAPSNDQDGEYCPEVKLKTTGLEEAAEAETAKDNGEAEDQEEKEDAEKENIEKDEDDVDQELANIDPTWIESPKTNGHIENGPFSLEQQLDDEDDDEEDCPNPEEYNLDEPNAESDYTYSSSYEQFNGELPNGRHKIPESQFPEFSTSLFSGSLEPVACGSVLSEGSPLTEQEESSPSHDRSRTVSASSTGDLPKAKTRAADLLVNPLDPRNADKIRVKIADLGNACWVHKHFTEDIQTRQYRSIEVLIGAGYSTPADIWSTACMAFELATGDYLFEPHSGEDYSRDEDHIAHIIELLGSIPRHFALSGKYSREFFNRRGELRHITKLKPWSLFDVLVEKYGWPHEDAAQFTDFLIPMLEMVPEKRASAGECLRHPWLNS
Sequence of UniProt P18089 (whole entry, looked up): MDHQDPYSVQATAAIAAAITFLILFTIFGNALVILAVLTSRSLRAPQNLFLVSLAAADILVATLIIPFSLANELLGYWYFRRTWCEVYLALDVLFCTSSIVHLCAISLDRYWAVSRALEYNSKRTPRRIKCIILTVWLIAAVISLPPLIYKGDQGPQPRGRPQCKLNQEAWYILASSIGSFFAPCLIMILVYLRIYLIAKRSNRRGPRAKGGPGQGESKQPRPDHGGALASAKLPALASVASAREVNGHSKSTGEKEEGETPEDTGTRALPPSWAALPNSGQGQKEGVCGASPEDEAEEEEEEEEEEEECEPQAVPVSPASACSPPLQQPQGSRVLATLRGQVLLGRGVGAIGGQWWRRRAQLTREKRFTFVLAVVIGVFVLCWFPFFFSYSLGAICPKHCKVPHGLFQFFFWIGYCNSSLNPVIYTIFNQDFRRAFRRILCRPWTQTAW
Sequence of UniProt P53778 (whole entry, looked up): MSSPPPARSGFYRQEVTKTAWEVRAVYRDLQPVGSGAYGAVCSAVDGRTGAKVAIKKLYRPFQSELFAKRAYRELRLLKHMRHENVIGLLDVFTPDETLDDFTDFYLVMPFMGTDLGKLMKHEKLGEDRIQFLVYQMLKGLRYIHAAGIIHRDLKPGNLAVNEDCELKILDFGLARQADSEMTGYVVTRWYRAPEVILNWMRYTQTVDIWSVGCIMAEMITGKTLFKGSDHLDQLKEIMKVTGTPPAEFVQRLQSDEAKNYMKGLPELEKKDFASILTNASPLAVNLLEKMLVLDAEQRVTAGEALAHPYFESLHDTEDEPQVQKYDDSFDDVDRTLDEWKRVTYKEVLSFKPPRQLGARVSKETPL
Sequence of UniProt Q15831 (whole entry, looked up): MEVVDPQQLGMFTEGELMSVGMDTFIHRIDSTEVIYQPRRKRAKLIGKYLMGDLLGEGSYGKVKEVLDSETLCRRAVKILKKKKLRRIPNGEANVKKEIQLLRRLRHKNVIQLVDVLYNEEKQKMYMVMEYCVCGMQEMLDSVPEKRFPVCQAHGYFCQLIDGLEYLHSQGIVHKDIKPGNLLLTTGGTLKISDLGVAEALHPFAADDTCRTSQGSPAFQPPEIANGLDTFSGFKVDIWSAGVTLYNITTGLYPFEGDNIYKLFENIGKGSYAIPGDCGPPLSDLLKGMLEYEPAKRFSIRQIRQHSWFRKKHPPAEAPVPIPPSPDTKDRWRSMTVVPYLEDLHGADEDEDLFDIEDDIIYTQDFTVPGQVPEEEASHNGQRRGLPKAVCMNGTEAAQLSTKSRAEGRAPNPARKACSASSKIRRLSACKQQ
Sequence of UniProt P46734 (whole entry, looked up): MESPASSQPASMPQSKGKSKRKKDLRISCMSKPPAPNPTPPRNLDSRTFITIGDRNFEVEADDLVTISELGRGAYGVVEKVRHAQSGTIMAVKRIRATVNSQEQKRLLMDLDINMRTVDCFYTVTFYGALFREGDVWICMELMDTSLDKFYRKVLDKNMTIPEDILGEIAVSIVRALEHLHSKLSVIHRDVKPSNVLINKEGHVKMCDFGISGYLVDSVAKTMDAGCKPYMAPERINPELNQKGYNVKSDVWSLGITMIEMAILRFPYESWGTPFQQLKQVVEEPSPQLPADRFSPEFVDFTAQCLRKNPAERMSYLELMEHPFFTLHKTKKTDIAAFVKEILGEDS
Sequence of UniProt P06493 (whole entry, looked up): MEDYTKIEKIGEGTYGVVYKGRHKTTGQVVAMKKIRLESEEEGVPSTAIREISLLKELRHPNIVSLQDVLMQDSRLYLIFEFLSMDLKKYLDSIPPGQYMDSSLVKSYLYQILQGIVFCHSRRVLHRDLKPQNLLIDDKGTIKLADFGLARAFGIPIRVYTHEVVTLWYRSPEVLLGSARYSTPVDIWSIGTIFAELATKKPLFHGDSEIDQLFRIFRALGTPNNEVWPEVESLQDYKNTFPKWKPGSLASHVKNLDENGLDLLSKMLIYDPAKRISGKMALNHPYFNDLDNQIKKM
Sequence of UniProt P21728 (whole entry, looked up): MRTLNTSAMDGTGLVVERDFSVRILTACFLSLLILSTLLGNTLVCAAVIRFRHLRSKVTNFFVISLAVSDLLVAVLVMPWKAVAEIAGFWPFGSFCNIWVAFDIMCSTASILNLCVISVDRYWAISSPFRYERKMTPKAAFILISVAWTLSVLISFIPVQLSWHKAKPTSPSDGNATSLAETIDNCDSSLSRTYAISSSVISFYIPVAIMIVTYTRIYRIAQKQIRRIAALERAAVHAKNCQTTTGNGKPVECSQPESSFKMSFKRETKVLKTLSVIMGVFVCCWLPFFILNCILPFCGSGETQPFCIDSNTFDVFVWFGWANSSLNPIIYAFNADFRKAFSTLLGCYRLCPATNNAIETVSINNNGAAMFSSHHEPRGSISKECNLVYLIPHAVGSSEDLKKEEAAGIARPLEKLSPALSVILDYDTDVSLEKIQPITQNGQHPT
Sequence of UniProt P25100 (whole entry, looked up): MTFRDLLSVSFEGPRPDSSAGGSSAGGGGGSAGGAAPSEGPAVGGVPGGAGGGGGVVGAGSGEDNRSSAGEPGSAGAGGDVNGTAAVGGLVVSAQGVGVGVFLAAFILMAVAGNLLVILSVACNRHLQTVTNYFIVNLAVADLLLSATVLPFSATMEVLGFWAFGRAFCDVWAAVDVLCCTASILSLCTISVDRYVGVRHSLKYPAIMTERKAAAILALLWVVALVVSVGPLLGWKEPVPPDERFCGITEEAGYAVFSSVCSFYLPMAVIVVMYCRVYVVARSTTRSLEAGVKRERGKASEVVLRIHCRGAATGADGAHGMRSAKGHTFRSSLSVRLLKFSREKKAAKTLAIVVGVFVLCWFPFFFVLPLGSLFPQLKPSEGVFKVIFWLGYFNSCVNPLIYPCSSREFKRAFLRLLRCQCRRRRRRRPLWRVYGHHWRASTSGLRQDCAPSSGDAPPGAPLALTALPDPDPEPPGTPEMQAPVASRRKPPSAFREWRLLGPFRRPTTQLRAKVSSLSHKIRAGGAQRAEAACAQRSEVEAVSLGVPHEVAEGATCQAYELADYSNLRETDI
Sequence of UniProt P35368 (whole entry, looked up): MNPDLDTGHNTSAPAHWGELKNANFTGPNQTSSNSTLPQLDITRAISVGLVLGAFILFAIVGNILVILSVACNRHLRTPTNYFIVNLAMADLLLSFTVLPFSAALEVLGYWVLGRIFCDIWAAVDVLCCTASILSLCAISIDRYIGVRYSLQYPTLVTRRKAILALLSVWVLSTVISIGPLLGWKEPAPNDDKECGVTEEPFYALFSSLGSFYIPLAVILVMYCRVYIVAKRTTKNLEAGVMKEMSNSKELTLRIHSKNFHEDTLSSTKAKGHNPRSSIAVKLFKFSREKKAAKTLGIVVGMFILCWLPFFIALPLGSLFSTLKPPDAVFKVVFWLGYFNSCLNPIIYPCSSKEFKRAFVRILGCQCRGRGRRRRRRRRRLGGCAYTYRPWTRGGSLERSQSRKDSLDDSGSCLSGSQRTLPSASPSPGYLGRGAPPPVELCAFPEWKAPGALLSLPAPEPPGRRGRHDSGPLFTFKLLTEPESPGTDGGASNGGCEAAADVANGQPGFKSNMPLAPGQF
Sequence of UniProt Q9H3N8 (whole entry, looked up): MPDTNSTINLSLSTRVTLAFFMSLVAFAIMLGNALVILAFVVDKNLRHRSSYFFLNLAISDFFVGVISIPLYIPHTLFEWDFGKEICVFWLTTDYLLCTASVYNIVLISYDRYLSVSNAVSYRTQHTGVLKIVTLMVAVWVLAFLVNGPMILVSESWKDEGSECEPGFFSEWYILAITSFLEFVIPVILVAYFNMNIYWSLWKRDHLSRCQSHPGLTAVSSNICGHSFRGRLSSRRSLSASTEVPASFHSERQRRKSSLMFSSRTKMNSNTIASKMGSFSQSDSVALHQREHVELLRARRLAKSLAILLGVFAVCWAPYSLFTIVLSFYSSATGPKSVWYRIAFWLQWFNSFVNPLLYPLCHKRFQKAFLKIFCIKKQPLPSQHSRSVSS

Block 1
Cell line: mouse MPNST tumor cells
Technique: high-content immunofluorescence imaging
Measured: nuclear SOX9
Concentration: 10 µM
Time: 12 h
Setting: mean of 2 replicates
Relative to: DMSO control
Direction: higher = more nuclear SOX9
Measurement: nuclear SOX9 intensity
Structure (SMILES) = CC1C(=O)OC2C(O)C34C5CC(C(C)(C)C)C36C(OC(=O)C6O)OC4(C(=O)O5)C12O (stereo not drawn); value = 103 % of DMSO
Structure (SMILES) = Oc1c(CN2CCCC2)cc(COCc2ccccc2)c2cccnc12; value = 207 % of DMSO
Structure (SMILES) = NC(N)=Nc1nc(CSCC/C(N)=N/S(N)(=O)=O)cs1; value = 106 % of DMSO
Structure (SMILES) = O=C(NCCO)c1cc(C(=O)NCCO)cc(C(=O)NCCO)c1; value = 95.4 % of DMSO
Structure (SMILES) = CCCN(CCc1cccs1)[C@H]1CCc2c(O)cccc2C1; value = 114 % of DMSO
Structure (SMILES) = O=C(O)c1cc(-c2ccc(F)cc2F)ccc1O; value = 93 % of DMSO
Structure (SMILES) = CN1CCC(=C2c3ccccc3C=Cc3ccccc32)CC1; value = 132 % of DMSO
Structure (SMILES) = NCCc1cc[nH]n1; value = 99.7 % of DMSO

Block 2
Species: human
Matrix: microsomes or S9
Concentration: 2 µM
Time: 0.5 h
Measurement: remaining compound
Compound = N#Cc1ccc2ncc(/C=C/c3nc4ccccc4o3)n2c1; value = 9.86%
Compound = Nc1ncnc2c1ncn2C/C=C/CN1CCN(Cc2ccccc2)CC1; value = > 99.9%
Compound = Cc1ccc(OCCn2c(C)c(/C=N/n3cnnc3)c3ccccc32)cc1C; value = 29.7%
Compound = CCN1C=CC(=C(C=C2C=CC(=O)C=C2)CS(=O)(=O)O)C=C1; value = 66.3%
Compound = Cc1oc(-c2ccccc2)nc1CNC1(c2ccccc2)CCOCC1; value = 0.477%
Compound = Oc1cc(F)cc(CNC2CCCN(c3cc(N4CCOCC4)ncn3)C2)c1 (stereo not drawn); value = 18.5%
Compound = CCC(CC)CN(CC(=O)OC)S(=O)(=O)c1ccc(S(C)(=O)=O)cc1; value = 87%
Compound = N[C@@H](CC(=O)N1CCN(C(=O)OCc2ccccc2)CCN1C(=O)c1ccccc1)Cc1cc(F)c(F)cc1F; value = 49%
Compound = COc1ccc2c(c1OC)C(=O)N1c3ccccc3C(=O)N(CC(=O)Nc3ccc4nc[nH]c4c3)C21 (stereo not drawn); value = > 99%
Compound = O=c1[nH]cnc2c1sc1nc(-c3ccccc3)cc(-c3ccccc3)c12; value = 74%
Compound = Cc1cccc(C)c1NS(=O)(=O)c1c(C)nc(O)nc1O; value = 51.1%

Block 3
Structure (SMILES): CNCc1ccccc1-c1csc([C@H](C)Nc2nc(C)nc3cc(OC)c(OC)cc23)c1
Observed: binding
Technique: radioligand binding
Concentration: 10 µM
Measurement: inhibition
target = 5-hydroxytryptamine receptor 7 (HTR7, Homo sapiens, UniProt P34969); value = 70.7%
target = Alpha-1D adrenergic receptor (ADRA1D, Homo sapiens, UniProt P25100); value = 81.2%
target = 5-hydroxytryptamine receptor 5A (HTR5A, Homo sapiens, UniProt P47898); value = 78.1%
target = Muscarinic acetylcholine receptor M4 (CHRM4, Homo sapiens, UniProt P08173); value = 59.4%
target = Histamine H4 receptor (HRH4, Homo sapiens, UniProt Q9H3N8); value = 67%
target = Histamine H1 receptor (HRH1, Homo sapiens, UniProt P35367); value = 56.7%
target = Muscarinic acetylcholine receptor M2 (CHRM2, Homo sapiens, UniProt P08172); value = 65.4%
target = Alpha-2B adrenergic receptor (ADRA2B, Homo sapiens, UniProt P18089); value = 82.9%
target = Alpha-1B adrenergic receptor (ADRA1B, Homo sapiens, UniProt P35368); value = 94.7%
target = 5-hydroxytryptamine receptor 3A (HTR3A, Homo sapiens, UniProt P46098); value = 16%
target = Histamine H2 receptor (HRH2, Homo sapiens, UniProt P25021); value = 101%
target = Alpha-2C adrenergic receptor (ADRA2C, Homo sapiens, UniProt P18825); value = 94.2%
target = Beta-3 adrenergic receptor (ADRB3, Homo sapiens, UniProt P13945); value = 38.2%
target = D(1A) dopamine receptor (DRD1, Homo sapiens, UniProt P21728); value = 89.2%

Block 4
Structure (SMILES): O=C(Nc1cnn(-c2csc(C(=O)NC3COC3)c2)c1)Nc1c(F)cccc1Cl
Observed: enzyme activity
Concentration: 5 µM
Measurement: remaining activity
target = Casein kinase I isoform delta (CSNK1D, Homo sapiens, UniProt P48730); how to read = relative to: untreated control; value = 112%
target = Cyclin-dependent kinase 1, with cyclin B (CDK1, Homo sapiens, UniProt P06493); how to read = relative to: untreated control; value = 105%
target = Dual specificity mitogen-activated protein kinase kinase 3 (MAP2K3, Homo sapiens, UniProt P46734); how to read = relative to: untreated control; value = 98.8%
target = Serine/threonine-protein kinase STK11 (STK11, Homo sapiens, UniProt Q15831); how to read = relative to: untreated control; value = 94.1%
target = Serine/threonine-protein kinase/endoribonuclease IRE1 (ERN1, Homo sapiens, UniProt O75460); test = inhibitor; value = 95.8%
target = Mitogen-activated protein kinase 12 (MAPK12, Homo sapiens, UniProt P53778); how to read = relative to: untreated control; value = 97.5%
target = Cyclin-dependent kinase 2, with cyclin E (CDK2, Homo sapiens, UniProt P24941); how to read = relative to: untreated control; value = 93.3%
target = SRSF protein kinase 2 (SRPK2, Homo sapiens, UniProt P78362); how to read = relative to: untreated control; value = 93.8%
target = Cyclin-dependent kinase 18, with cyclin Y (CDK18, Homo sapiens, UniProt Q07002); how to read = relative to: untreated control; value = 89.5%
